Assay results collected from several papers.
A part holds a random share of what one study measured.
UniProt Q59H18, sequence (whole entry, looked up): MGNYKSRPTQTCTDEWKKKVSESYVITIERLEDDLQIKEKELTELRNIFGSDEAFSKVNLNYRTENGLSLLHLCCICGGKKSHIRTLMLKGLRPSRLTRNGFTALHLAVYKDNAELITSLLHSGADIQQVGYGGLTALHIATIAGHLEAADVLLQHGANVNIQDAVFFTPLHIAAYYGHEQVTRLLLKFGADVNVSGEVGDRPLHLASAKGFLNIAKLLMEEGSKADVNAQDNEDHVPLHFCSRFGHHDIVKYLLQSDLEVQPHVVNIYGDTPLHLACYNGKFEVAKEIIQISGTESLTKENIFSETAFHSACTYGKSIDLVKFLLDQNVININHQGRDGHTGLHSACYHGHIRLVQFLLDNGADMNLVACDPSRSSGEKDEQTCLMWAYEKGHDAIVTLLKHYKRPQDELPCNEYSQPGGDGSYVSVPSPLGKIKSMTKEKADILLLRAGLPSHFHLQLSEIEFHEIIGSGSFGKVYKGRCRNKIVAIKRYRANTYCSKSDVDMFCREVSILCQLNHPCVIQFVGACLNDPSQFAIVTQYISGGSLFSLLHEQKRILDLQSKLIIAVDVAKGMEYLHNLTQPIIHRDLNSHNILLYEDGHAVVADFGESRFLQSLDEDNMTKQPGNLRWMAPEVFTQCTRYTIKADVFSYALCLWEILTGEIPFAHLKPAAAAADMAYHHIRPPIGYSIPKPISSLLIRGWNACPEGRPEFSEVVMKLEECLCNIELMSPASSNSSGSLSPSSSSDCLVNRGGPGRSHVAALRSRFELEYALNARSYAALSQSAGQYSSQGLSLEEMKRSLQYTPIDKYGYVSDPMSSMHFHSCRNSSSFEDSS
UniProt O00141, sequence (whole entry, looked up): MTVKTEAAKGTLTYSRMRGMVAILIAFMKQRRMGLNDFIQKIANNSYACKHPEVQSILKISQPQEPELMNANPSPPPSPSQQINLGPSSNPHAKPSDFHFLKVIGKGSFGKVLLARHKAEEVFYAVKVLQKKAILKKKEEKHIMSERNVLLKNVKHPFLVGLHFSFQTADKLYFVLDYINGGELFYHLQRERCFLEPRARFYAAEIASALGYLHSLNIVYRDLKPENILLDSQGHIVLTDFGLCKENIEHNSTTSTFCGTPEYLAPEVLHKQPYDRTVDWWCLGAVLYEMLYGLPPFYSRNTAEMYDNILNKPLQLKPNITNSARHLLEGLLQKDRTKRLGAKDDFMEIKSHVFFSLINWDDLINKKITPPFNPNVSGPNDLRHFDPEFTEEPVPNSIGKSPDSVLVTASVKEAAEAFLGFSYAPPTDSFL
UniProt P29323, sequence (whole entry, looked up): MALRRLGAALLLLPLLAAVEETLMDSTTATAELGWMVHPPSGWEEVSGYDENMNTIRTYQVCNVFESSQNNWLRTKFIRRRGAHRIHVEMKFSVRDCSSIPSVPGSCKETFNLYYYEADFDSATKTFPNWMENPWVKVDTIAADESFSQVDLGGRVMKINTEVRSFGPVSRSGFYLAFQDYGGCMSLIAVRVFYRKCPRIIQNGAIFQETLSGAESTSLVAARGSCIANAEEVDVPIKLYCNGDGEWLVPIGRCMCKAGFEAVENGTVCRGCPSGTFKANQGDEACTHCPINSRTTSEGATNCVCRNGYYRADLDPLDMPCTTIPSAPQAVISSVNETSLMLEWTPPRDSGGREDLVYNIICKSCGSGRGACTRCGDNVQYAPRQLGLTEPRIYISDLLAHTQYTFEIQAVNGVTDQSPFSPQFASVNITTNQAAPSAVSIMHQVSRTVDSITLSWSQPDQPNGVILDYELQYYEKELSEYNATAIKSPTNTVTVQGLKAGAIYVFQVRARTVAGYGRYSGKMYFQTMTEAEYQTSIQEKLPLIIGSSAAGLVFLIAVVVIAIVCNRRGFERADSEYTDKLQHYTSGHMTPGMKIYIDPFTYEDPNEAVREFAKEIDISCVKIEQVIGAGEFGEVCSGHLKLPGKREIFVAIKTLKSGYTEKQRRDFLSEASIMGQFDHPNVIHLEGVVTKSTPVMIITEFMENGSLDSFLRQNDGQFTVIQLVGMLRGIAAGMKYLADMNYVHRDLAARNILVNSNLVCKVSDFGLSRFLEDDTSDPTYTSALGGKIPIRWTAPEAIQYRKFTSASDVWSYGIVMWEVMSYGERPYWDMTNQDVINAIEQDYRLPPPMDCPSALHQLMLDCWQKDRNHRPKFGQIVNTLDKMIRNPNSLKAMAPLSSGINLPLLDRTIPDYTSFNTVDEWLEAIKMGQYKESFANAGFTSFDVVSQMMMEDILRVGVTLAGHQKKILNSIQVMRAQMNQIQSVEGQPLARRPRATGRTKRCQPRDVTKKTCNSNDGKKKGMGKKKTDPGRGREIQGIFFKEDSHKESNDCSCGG
UniProt Q9UPE1, sequence (whole entry, looked up): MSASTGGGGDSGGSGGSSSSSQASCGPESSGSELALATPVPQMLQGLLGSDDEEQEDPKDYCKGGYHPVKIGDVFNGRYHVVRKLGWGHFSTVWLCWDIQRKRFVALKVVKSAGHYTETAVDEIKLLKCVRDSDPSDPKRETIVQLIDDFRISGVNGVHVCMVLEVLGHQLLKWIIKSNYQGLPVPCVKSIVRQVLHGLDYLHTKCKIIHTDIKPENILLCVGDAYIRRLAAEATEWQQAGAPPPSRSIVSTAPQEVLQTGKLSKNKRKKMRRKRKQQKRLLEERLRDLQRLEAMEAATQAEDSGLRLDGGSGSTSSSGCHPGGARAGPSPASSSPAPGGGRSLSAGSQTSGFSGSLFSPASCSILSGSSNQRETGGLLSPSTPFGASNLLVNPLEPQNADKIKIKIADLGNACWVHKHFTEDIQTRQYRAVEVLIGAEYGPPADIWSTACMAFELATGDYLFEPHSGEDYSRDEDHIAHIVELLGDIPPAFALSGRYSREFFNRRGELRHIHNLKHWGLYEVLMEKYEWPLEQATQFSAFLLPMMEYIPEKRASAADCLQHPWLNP
UniProt O60285, sequence (whole entry, looked up): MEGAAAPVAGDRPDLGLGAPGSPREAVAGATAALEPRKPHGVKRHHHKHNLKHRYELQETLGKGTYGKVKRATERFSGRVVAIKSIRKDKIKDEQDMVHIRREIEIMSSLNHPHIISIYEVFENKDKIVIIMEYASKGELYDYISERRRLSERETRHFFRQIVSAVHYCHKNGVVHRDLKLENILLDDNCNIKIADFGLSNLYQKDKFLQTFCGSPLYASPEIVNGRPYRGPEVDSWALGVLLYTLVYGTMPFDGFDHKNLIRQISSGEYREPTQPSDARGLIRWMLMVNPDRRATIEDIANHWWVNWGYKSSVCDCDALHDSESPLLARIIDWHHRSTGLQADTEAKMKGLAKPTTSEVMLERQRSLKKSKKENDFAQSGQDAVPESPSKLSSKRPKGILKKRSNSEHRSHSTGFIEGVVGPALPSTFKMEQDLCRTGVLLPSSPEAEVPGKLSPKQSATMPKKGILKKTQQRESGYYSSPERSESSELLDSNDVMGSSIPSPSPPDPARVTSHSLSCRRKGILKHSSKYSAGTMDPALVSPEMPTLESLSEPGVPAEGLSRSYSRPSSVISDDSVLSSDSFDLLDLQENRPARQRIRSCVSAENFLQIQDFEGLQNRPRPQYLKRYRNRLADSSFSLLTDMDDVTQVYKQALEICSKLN
UniProt P37023, sequence (whole entry, looked up): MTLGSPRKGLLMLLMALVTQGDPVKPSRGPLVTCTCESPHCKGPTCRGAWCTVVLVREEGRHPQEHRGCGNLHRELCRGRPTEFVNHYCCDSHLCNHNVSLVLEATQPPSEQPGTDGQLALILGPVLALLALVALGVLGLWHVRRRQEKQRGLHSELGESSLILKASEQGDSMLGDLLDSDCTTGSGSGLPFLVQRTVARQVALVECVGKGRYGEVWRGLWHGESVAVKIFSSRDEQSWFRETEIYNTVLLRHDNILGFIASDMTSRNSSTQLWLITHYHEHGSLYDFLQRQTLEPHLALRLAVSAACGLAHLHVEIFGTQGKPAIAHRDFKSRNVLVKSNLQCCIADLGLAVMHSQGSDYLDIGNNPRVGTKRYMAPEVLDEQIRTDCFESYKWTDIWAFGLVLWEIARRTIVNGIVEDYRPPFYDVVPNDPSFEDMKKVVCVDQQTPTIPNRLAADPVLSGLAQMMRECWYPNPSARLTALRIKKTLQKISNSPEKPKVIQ

Series 1
Cell line: HH
Concentration: 2 µM
Time: 48 h
Relative to: untreated
SMILES | viability
C1=N/C2=N/c3ccc(OCCN4CCCC4)c(c3)COC/C=C/COCc3cccc(c3)C(=C1)N2 | 34.6%
CO[C@H]1C[C@@H]2CC[C@@H](C)[C@@](O)(O2)C(=O)C(=O)N2CCCC[C@H]2C(=O)O[C@H]([C@H](C)C[C@@H]2CC[C@@H](OP(C)(C)=O)[C@H](OC)C2)CC(=O)[C@H](C)/C=C(\C)[C@@H](O)[C@@H](OC)C(=O)[C@H](C)C[C@H](C)/C=C/C=C/C=C/1C | 34.4%
Nc1cccc(-c2cc3c(Oc4cccc(O)c4)ncnc3[nH]2)c1 | 57.2%
CN([C@@H](Cc1ccc(OS(=O)(=O)c2cccc3cnccc23)cc1)C(=O)N1CCN(c2ccccc2)CC1)S(=O)(=O)c1cccc2cnccc12 | 76.4%

Series 2
Host: human
Sample: microsomes or S9
Concentration: 2 µM
Time: 0.5 h
SMILES | remaining compound [%]
COC(=O)c1cc(N)c2c(c1)Oc1ccccc1O2 | 0
COc1ccc2ccccc2c1-c1cc(Cn2c(C)c(C)ncc2=O)on1 | 3.58
CC1(C)Oc2ccncc2C(N(Cc2ncc[nH]2)c2ccc(Cl)cc2Cl)C1O (stereo not drawn) | 9.6

Series 3
SMILES: CS(=O)(=O)N1CCCC(NC(=O)[C@H](CCC2CCCCC2)NC(=O)c2ccc(CNC(=O)c3cnc4ccccn34)cc2)C1 (stereo partly drawn)
Read-out: cell-free assay
Method: competition with immobilised ligand
Concentration: 0.1 µM
target | remaining binding [%]
PIP4K2B (Homo sapiens, UniProt P78356) | 100
ACVRL1 (Homo sapiens, UniProt P37023) | 96
STK3 (Homo sapiens, UniProt Q13188) | 88
TEC (Homo sapiens, UniProt P42680) | 94
TNNI3K (Homo sapiens, UniProt Q59H18) | 89
TAOK3 (Homo sapiens, UniProt Q9H2K8) | 83
FLT3 (Homo sapiens, UniProt P36888, ITD) | 100
PIK3C3 (Homo sapiens, UniProt Q8NEB9) | 100

Series 4
SMILES: Cc1cc(Nc2cc(N3CCN(C)CC3)nc(Sc3ccc(NC(=O)C4CC4)cc3)n2)[nH]n1
Read-out: enzyme activity
Mode: inhibitor
Concentration: 0.5 µM
Relative to: control
target | remaining activity [%]
EPHB2 (Homo sapiens, UniProt P29323) | 78.3
SRPK3 (Homo sapiens, UniProt Q9UPE1) | 105
GRK6 (Homo sapiens, UniProt P43250) | 104
CSK (Homo sapiens, UniProt P41240) | 78.1
PRKCG (Homo sapiens, UniProt P05129) | 94.2
PAK2 (Homo sapiens, UniProt Q13177) | 93.1
NUAK1 (Homo sapiens, UniProt O60285) | 18.5
GRK2 (Homo sapiens, UniProt P25098) | 107
SGK1 (Homo sapiens, UniProt O00141) | 116
